Measured values pooled from the literature.
Each line is one published result; not all experiments were run side by side. Numbers after ± are the reported error.

`CC[C@H](C)[C@H](NC(=O)[C@H](CCCNC(=N)N)NC(=O)[C@H](CCCCN)NC(=O)[C@H](Cc1ccc(O)cc1)NC(=O)[C@H](CC(=O)O)NC(=O)[C@H](C)NC(=O)CNC(=O)CCOCCOCCOCCNC(=O)CN1CCN(CC(=O)O)CCN(CC(=O)O)CCN(CC(=O)O)CC1)C(=O)N[C@H](C(=O)N[C@@H](CC(C)C)C(=O)N[C@@H](CCCCN)C(=O)N[C@H](C(=O)N[C@@H](CC(N)=O)C(N)=O)C(C)C)[C@@H](C)O` [copper-64 labelled] has a tissue uptake of 0.958 ± 0.359 %ID/g (ex vivo gamma counting; C57BL/6J male mice, B16-F10 tumour, bone; intravenous, 1.85 MBq, 40 min).
For `CC(C)C[C@@H](NC(=O)[C@@H](CCCNC(=N)N)NC(=O)[C@@H](Cc1c[nH]cn1)NC(=O)[C@@H](Cc1c[nH]c2ccccc12)NC(=O)[C@@H](Cc1c[nH]cn1)NC(=O)[C@@H](Cc1ccccc1)NC(=O)[C@H](NC(=O)[C@@H](Cc1ccc(O)cc1)NC(=O)CNC(=O)CNC(=O)CCOCCOCCOCCNC(=O)CN1CCN(CC(=O)O)CCN(CC(=O)O)CC1)[C@H](C)O)C(=O)N[C@H](CC(N)=O)C(=O)N1CCC[C@@H]1C(=O)O` [gallium-68 labelled], the tissue uptake was 0.65 ± 0.16 %ID/g (gamma counting; C57BL/6 mice, male, bone; intravenous, 1.85 MBq, 30 min).
The tissue uptake of `CSCC[C@H](NC(=O)CNC(=O)[C@H](CCCCN)NC(=O)[C@H](CC(C)C)NC(=O)[C@@H]1CCCN1C(=O)[C@H](CO)NC(=O)[C@H](Cc1c[nH]cn1)NC(=O)[C@H](Cc1c[nH]c2ccccc12)NC(=O)[C@H](CCCNC(=N)N)NC(=O)[C@H](CC(C)C)NC(=O)[C@H](CCCNC(=N)N)NC(=O)[C@H](Cc1c[nH]c2ccccc12)NC(=O)[C@H](CS)NC(=O)CCCCCNC(=O)CN1CCN(CC(=O)O)CCN(CC(=O)O)CCN(CC(=O)O)CC1)C(=O)O` [copper-64 labelled] is reported as 1.21 %ID/g (ex vivo biodistribution; male C57BL/6J mice, bone; intravenous, 1.85 MBq, 30 h, B16-F10 tumour-bearing).
For `CC[C@H](C)[C@H](NC(=O)[C@H](CCCCN)NC(=O)CNC(=O)[C@H](CC(C)C)NC(=O)[C@H](Cc1ccccc1)NC(=O)[C@H](CCCCN)NC(=O)[C@H](CO)NC(=O)[C@H](Cc1ccccc1)NC(=O)[C@H](Cc1c[nH]c2ccccc12)NC(=O)[C@H](CCC(N)=O)NC(=O)[C@@H](NC(=O)[C@H](Cc1ccccc1)NC(=O)CCCCCNC(=O)CN1CCN(CC(=O)O)CCN(CC(=O)O)CCN(CC(=O)O)CC1)C(C)C)C(=O)N[C@@H](CCC(=O)O)C(=O)N1CCC[C@H]1C(=O)N[C@@H](CC(=O)O)C(=O)N[C@H](C(=O)N[C@@H](CO)C(=O)N[C@@H](CCC(N)=O)C(=O)N[C@H](C(=O)N[C@@H](CCC(N)=O)C(=O)N[C@@H](CC(=O)O)C(=O)N1CCC[C@H]1C(=O)N[C@@H](CC(N)=O)C(=O)N[C@@H](CC(=O)O)C(=O)N[C@@H](CCC(N)=O)C(=O)N[C@@H](Cc1ccc(O)cc1)C(=O)N[C@@H](CCC(=O)O)C(=O)N1CCC[C@H]1C(=O)N[C@@H](Cc1ccccc1)C(=O)O)C(C)C)C(C)C` [copper-64 labelled], the tissue uptake was 3.34 ± 0.4 %ID/g (C57BL/6 mice, male, naive, brown fat; 0.5 h).
The tissue uptake of `CC[C@H](C)[C@H](NC(=O)[C@H](CCCNC(=N)N)NC(=O)[C@H](CCCCN)NC(=O)[C@H](Cc1ccc(O)cc1)NC(=O)[C@H](CC(=O)O)NC(=O)[C@H](C)NC(=O)CNC(=O)CCOCCOCCOCCNC(=O)CN1CCN(CC(=O)O)CCN(CC(=O)O)CCN(CC(=O)O)CC1)C(=O)N[C@H](C(=O)N[C@H](C(=O)N[C@@H](CCCCN)C(=O)N[C@H](C(=O)N[C@@H](CC(N)=O)C(N)=O)C(C)C)C(C)C)[C@@H](C)O` [copper-64 labelled] is reported as 1.7 ± 0.476 %ID/g (ex vivo gamma counting; C57BL/6J male mice, B16-F10 tumour, muscle; intravenous, 1.85 MBq, 5 min).
`C[C@H](O)[C@@H](NC(=O)[C@H]1CCCN1C(=O)[C@@H](CCCCN)NC(=O)[C@@H](CO)NC(=O)[C@@H](Cc1ccc(O)cc1)NC(=O)[C@@H](CC(N)=O)NC(=O)CCOCCOCCOCCNC(=O)CN1CCN(CC(=O)O)CCN(CC(=O)O)CCN(CC(=O)O)CC1)C(=O)N[C@H](CC(=O)O)C(=O)N[C@H](CCCNC(=N)N)C(=O)N[C@H](CCC(N)=O)C(=O)N[C@H](Cc1ccc(O)cc1)C(=O)N[C@H](Cc1c[nH]cn1)C(=O)N[C@H](Cc1ccccc1)C(N)=O` [copper-64 labelled] has a tissue uptake of 0.19 ± 0.04 %ID/g (C57BL/6J mice, pancreas; intravenous, 1.85 MBq, 1.333 h, radiolabelled).
For `CCCC[C@H]1C(=O)N(C)[C@@H](CCCC)C(=O)N[C@@H](CCCNC(=O)CN2CCN(CC(=O)O)CCN(CC(=O)O)CCN(CC(=O)O)CC2)C(=O)N[C@H](C(=O)NCC(N)=O)CSCC(=O)N[C@@H](Cc2ccc(O)cc2)C(=O)N(C)[C@@H](C)C(=O)N[C@@H](CC(N)=O)C(=O)N2CCC[C@H]2C(=O)N[C@@H](Cc2c[nH]cn2)C(=O)N[C@@H](CC(C)C)C(=O)N(C)CC(=O)N[C@@H](Cc2c[nH]c3ccccc23)C(=O)N[C@@H](CO)C(=O)N[C@@H](Cc2c[nH]c3ccccc23)C(=O)N1C` [gallium-68 labelled], the tissue uptake was 2.86 ± 0.18 %ID/g (NOD/SCID mice, CHO-hPD-L1 xenograft, heart; 60 min, atezolizumab 10 mg/kg pretreatment).
`CN1Cc2cc(Cl)ccc2-n2c(nnc2C2CCN(c3cccc([18F])n3)CC2)C1` has a tissue uptake of 3.5 ± 0.91 %ID/g (C57BL/6 mouse male, lung; intravenous, 3.7 MBq, 60 min).

For quick reference, copied from above:
The tissue uptake of `CSCC[C@H](NC(=O)CNC(=O)[C@H](CCCCN)NC(=O)[C@H](CC(C)C)NC(=O)[C@@H]1CCCN1C(=O)[C@H](CO)NC(=O)[C@H](Cc1c[nH]cn1)NC(=O)[C@H](Cc1c[nH]c2ccccc12)NC(=O)[C@H](CCCNC(=N)N)NC(=O)[C@H](CC(C)C)NC(=O)[C@H](CCCNC(=N)N)NC(=O)[C@H](Cc1c[nH]c2ccccc12)NC(=O)[C@H](CS)NC(=O)CCCCCNC(=O)CN1CCN(CC(=O)O)CCN(CC(=O)O)CCN(CC(=O)O)CC1)C(=O)O` [copper-64 labelled] is reported as 1.21 %ID/g (ex vivo biodistribution; male C57BL/6J mice, bone; intravenous, 1.85 MBq, 30 h, B16-F10 tumour-bearing).
